Experimental data gathered from unrelated publications.
A part holds a random share of what one study measured.

Block 1 — method: protein binding microarray; form: double-stranded DNA, one strand shown; medium: in vitro; concentration: not given; reference: not given; direction: higher = stronger binding
Target: Histone acetyltransferase KAT6A, both winged helices, GST fusion (KAT6A, Homo sapiens, UniProt Q92794, residues 1-181)
Notes: 8-mer, flanks averaged, mean of 2 arrays, mostly near background
Target sequence (chain): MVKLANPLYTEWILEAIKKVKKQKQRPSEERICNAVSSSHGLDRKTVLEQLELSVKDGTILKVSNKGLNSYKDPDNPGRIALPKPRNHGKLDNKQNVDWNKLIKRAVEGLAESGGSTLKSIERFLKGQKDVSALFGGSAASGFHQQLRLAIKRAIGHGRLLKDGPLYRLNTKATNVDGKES
| Oligonucleotide | E-score |
| --- | --- |
| CCTAGCCA | -0.218 |
| ACTAGGCG | 0.0998 |
| CCAGCCGA | 0.158 |
| CTGAACGA | -0.0957 |
| CACCAACA | -0.101 |
| CAAGATAC | -0.0301 |
| AGAGATTG | -0.0424 |
| AATGTCCG | 0.254 |
| CAGCGCGC | 0.363 |
| GGGGGTAC | -0.0217 |
| CGAAATCG | 0.227 |
| CTTCTATA | -0.156 |
| TCCATTCA | -0.225 |
| AGAGTATG | -0.112 |
| TCTCCTAA | -0.296 |
| AAGTTAAC | 0.0243 |
| CTGCGATA | -0.0478 |
| AGACTAAG | -0.0681 |
| TCGAAACA | -0.0287 |
| AGGTAGCG | 0.199 |
| ACGACGTG | -0.0057 |
| TATAAACA | -0.0569 |
| GTAGGAAA | -0.0991 |
| CGCACAGA | 0.122 |
| TACCGCTA | 0.255 |

Block 2 — method: RNA Bind-n-Seq; form: RNA; medium: in vitro; concentration: 200 nM; notes: whole 134-nt RNA, ends assumed; added: 150 mM LiCl; reference: input library; direction: higher = stronger binding; all molecules: 7-deaza-guanosine replaces G
Target: Fragile X messenger ribonucleoprotein 1, C-terminal low-complexity region (Fmr1, Mus musculus, UniProt P35922)
| Oligonucleotide | log2 enrichment |
| --- | --- |
| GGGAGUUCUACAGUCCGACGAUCCACAGACAACACGCACCCACACAGACACAGACGGAAGGGGUUGGGAUGGGGACAGGGUGCACAGCAGGGCGGGGUAGGACCCCAGCCCCUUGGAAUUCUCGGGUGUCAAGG | 0.378 |
| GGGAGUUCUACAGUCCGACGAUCACCAUGCAGGUGGGCAUCUUUGGGAAGUGGGGCAAGGGGGGGAUAGAAAGGGGGGUAACACUUUGGGAACAGGUGGUCCCAGGUCGUUUCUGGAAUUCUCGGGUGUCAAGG | 1 |
| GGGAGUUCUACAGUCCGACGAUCCUGUGCUACACAUCGUAUGUACCGAAUCGGGCCCCCCCGGGGCCCCCCCGGCCCCCCCGGGGAAAGUAUUAUGUUACGCCGUUCGGAUCUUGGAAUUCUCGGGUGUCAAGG | -1.46 |
| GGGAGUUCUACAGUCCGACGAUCUCCUGUGCUACACAUCGUAUGUACCGAAUCGGGGAAAAAAAGGGGUUUUUGGGGAGGGGAAAGUAUUAUGUUACGCCGUUCGGAUCUGCAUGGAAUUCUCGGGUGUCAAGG | -0.479 |
| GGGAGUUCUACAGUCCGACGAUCAAGUCCUGUGCUACACAUCGUAUGUACCGAAUCGGUUUUGGGUUUUGGGUUUUGGGGAAAGUAUUAUGUUACGCCGUUCGGAUCUGCACUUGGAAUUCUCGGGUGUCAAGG | -0.658 |
| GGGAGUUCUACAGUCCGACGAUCUAACUUUAGAGGAGGAUCUGAUGGAUAUGGCAGUGGACGUGGAUUUGGGGAUGGCUAUAAUGGGUAUGGAGGAUGACCUGGAGGUGGCAAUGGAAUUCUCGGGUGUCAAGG | 0.133 |
| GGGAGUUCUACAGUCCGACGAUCUAACUUUAGAGGAGGAUCUGAUGGAUAUGGCAGUGGACGUGGAUUUGGGGAUGGCUAUAAUGGGUAUGGAGGAGGACUUGGAGGUGGCAAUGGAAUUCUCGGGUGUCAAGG | 0.97 |
| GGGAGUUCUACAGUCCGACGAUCUGUCCUGUGCUUUCACAUUCUUUCUGCAUGGAGAAAGUAAUGUAUGCACAAGUGUGGAGAUUGCCCAGCACCAGCCAAUUUAUUUGAUCAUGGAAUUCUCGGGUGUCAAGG | -3.42 |
| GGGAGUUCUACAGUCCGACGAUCAAGUCCUGUGCUACACAUCGUAUGUACCGAAUCGGGUUUUUGGGAAAAAGGGUGGGAAAGUAUUAUGUUACGCCGUUCGGAUCUGCACUUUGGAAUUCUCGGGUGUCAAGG | -2.19 |
| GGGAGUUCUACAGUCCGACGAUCGUCCUGUGCUACACAUCGUAUGUACCGAAUCGGGAAAAAAAGGGAGGGAAAAAAAGGGAAAGUAUUAUGUUACGCCGUUCGGAUCUGCACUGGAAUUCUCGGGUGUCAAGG | 0.704 |
| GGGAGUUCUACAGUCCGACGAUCCCUCAAGUCCUGUGCUACACAUCGUAUGUACCGAAUCGGGGCGGCGGCGGGGAAAGUAUUAUGUUACGCCGUUCGGAUCUGCACUUCCAGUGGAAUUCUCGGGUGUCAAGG | -0.55 |

Block 3 — method: universal PBM; form: double-stranded DNA, one strand shown; medium: in vitro; concentration: 600 nM; direction: higher = stronger binding
Target: Sal-like protein 4, full length isoform A (SALL4, Homo sapiens, UniProt Q9UJQ4, residues 1-1053)
Sequence of UniProt Q9UJQ4 (whole entry, looked up): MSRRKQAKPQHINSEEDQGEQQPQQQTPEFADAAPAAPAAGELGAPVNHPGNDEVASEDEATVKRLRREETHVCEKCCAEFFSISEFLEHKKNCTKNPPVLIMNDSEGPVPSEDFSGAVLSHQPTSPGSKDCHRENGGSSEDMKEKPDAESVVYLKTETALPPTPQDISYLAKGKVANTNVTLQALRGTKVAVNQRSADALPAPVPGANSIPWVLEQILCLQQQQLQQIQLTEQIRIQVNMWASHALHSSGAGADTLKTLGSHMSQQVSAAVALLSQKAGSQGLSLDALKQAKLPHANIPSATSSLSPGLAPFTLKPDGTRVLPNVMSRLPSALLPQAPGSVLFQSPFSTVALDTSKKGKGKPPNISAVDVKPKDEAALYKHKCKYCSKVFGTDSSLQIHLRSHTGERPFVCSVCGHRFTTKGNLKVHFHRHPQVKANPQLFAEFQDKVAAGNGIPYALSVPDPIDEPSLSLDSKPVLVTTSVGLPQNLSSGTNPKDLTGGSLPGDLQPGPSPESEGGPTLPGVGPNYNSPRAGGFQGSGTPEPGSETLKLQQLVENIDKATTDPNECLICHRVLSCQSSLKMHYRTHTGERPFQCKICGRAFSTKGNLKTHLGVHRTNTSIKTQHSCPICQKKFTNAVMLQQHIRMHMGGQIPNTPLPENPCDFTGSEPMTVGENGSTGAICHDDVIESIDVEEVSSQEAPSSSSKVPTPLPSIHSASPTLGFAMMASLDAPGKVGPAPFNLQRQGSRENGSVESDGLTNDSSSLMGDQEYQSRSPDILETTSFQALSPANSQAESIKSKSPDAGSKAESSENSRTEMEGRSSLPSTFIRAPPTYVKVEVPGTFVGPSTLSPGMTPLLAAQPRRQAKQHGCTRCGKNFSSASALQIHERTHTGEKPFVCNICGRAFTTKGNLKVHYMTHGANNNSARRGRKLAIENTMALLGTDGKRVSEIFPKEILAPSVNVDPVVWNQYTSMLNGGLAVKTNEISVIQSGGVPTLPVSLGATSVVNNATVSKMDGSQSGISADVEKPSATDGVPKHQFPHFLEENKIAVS
Notes: 8-mer, flanks averaged, mean of replicates
| Oligonucleotide | E-score |
| --- | --- |
| AGTCGCAT | 0.00848 |
| ACATGATG | 0.147 |
| AGTCGTGC | -0.23 |
| CTACATCC | 0.0551 |
| AATACAAG | 0.295 |
| AGGAACAA | -0.0325 |
| GCAATCGC | -0.152 |
| GACAGGCC | -0.35 |
| ACTATGGA | 0.165 |
| AATGCCTA | 0.0854 |
| GGAAAGTA | 0.204 |
| GCGACCTA | -0.151 |
| ATAGAAGG | 0.0368 |
| AGGCAGAC | -0.139 |
| GTAGGAAA | 0.083 |

Block 4 — method: protein-binding microarray; form: double-stranded DNA, one strand shown; medium: in vitro; concentration: not given; direction: higher = stronger binding
Target: Transcription factor Sp1 (SP1, Homo sapiens, UniProt P08047, residues 1-785, full length assumed)
Sequence of UniProt P08047 (whole entry, looked up): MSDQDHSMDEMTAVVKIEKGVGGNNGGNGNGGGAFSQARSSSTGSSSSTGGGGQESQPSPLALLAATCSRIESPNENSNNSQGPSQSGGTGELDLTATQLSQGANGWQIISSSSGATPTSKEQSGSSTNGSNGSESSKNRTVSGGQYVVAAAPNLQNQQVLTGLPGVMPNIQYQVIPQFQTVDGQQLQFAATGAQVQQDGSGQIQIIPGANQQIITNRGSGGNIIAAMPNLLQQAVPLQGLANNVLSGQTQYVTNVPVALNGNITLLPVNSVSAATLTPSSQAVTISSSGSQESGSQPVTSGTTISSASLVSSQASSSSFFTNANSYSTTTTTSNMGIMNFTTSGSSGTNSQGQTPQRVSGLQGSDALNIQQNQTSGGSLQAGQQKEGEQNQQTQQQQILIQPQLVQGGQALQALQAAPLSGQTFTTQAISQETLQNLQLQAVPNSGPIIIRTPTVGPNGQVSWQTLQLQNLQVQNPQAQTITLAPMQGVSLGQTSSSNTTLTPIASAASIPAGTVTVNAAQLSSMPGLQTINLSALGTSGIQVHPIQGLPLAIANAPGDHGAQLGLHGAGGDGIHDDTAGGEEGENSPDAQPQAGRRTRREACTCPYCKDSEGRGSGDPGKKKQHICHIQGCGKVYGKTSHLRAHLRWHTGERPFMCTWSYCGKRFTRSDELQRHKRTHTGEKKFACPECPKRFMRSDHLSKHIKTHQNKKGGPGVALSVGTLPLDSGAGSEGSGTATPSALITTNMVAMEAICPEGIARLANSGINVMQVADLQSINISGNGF
Notes: k-mer, scored over probes, only values ≥0.25
| Oligonucleotide | E-score |
| --- | --- |
| ACAAAGCA | 0.251 |
| CCACACCA | 0.326 |
| ACCCCTAA | 0.264 |
| AAATGGTA | 0.31 |
| GGGGTAGA | 0.295 |
| CCATCTCC | 0.269 |
| CAGGCGGG | 0.252 |
| CAACGCCC | 0.331 |
| CACTCCCA | 0.362 |
| CCCCATCA | 0.337 |
| AGGAGGCG | 0.285 |

Block 5 — method: EMSA with sequencing; form: double-stranded DNA, one strand shown; medium: in vitro; concentration: 10 and 20 nM; reference: negative control set to 0; direction: higher = stronger binding
Target: Hepatocyte nuclear factor 3-alpha (Foxa1, Mus musculus, UniProt P35582, residues 1-468, full length assumed)
Sequence of UniProt P35582 (whole entry, looked up): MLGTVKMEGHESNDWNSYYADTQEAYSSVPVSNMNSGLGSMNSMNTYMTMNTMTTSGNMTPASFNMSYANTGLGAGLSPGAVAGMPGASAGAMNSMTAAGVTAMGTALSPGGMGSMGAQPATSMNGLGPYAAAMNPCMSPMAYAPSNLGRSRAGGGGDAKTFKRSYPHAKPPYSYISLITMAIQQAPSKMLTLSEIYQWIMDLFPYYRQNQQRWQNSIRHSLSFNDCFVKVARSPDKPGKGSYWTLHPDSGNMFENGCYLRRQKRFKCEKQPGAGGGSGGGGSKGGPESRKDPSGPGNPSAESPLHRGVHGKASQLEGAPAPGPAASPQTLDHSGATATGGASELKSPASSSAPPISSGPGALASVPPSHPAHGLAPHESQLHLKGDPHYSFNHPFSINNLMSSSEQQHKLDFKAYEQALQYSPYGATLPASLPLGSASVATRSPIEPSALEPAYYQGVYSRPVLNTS
Notes: whole designed probe, mean of two concentrations, ends assumed
| Oligonucleotide | normalised bound fraction [ratio] |
| --- | --- |
| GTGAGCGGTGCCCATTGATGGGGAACGTCAATTACGTGGGAAATAAAGATAAGGCAAATGCACTTGGTTCTCTGAACTATTCTGACATTAGAAGAAATGCCAAGTCAGCAGATATCTGCTGTTTACATTTCACAATAACCTAATCATGCATTTGCAGCTTTCTGGAGCAAAACACTAACTGTTCTCCAAACAGCCACCTGACAATCTAAGGCTGAAACATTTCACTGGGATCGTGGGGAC | 0.34 |
| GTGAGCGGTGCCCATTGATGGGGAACGCATGAGACAGCATTTCTTCTTGTCCTCGGGGCCTGCAGGAAGTTTTTAAGTAATCTGCTTTTGTGCCTCTTCCAAATCTCCTCCTATGACCCTGTTTACCTTACATCACAAGAAACAATCAATAAAAGTGGTTTGTGTTCGTGAGTGCCGTGTGTTTGACAAAGGCGTTGATAACTGAGAGCTGGTAGTGGATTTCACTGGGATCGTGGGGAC | 0.176 |
| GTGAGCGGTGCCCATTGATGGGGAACTGCTTAATTCTCCATTTCAAAACATTCCAGGAATGGAAAAATGATTCAGCTGGAAGGCATTCGCCCTGTCAGCACCCTATTATCCTAACACAGTGTTTACTCTGTTACTGGTTTCAGTTATCCCTACACAGTTTGATAATCATTTTTGAAGCCAGCCTGGTGTATAACTTAGCACTGGTTCATAGCATGTTTATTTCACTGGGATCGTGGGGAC | 0.305 |
| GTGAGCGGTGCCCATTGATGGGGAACGACGGGCACCAGGAGCCCTGTGTCCTCTGCCTTGCAGGTGTTTAGGGAACATTGTTCAGACTGGAAGGAAGAGCCACGTGAAAATGCCCTTTCTGTTTACTCTGCTGGGAAGGATATGAAGCCAAACAGAACCAGCTACGGGAGTCTTTCGACCGCAAGACAAAAGGTCCTTTGCCCCCACTACCTGCAACTTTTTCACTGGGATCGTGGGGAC | 0.284 |
| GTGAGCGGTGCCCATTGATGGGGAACAGAAATTAGGATTTGAAGATGGAGGGGAAAGTGGGTGGGGAAAGAGTAGAGTAGATAGGGCTAAATAAATAAAACTACCATGTATATGAACAGTGTAAACAAGGACTTAAGAACTACTAAGTCCTTGTCTTGTATTAGTAAATACTAAATTATAAATAAAACACACTATAAGAATGTTGTTTTATATATCAATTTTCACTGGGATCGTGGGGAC | 0.478 |
| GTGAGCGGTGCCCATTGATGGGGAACAATATTGCTTCCATACGTTCTGTTGCTTAAGTTCACCTCTGCCTCTAGGGCTCACACTTGTATTCCTTTTGCCTGGACTGCTTTTTCCCCAAATATTTACACAGCTGGCTACTTGTTCTTGTCACTCAAACACACTTGAGTATCACTCTCAGAGATACTTTGTTGAGTTCCTCATCTAATACATCCACTACATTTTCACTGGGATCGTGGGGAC | 0.311 |

Block 6 — method: RNA Bind-n-Seq; form: RNA; medium: in vitro; concentration: not given; notes: RNA with constant flanks, ends assumed; reference: input RNA pool; direction: higher = stronger binding
Target: RING finger protein unkempt homolog, zinc fingers 1-6, GST-SBP tag (UNK, Homo sapiens, UniProt Q9C0B0, residues 30-357)
Residues (chain): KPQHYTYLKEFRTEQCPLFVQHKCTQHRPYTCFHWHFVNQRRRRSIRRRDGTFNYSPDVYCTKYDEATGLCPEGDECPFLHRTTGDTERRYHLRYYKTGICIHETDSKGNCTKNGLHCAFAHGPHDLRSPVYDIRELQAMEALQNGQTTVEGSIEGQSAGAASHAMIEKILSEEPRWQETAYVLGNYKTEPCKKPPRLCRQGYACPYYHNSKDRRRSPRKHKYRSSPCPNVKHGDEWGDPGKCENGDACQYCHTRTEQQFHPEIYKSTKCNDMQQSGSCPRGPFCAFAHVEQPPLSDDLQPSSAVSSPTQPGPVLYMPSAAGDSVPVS
| Oligonucleotide | bound/input enrichment |
| --- | --- |
| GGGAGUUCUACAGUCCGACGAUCUGCCACCGCCGCUGCUGCCGCCGCCGCCGCCGCCGCCGCCGCUGCGACCUCCGCGUUCGGCCGCCGAAUUUGGAAUCCCUGCACCGGGCUAACAAUGAAGCAGAGUUCCAACGUGCCGGCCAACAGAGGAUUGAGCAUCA | 0.661 ratio |
| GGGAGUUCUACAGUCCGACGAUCAAAGGAGAGAAGAAGGAGAAAAAACAGCAAUCAAUAGCUGGAAGUGCCGACUCUAAGCCAACCGAUGUUUCCCGUCUGGAUCUUCGAAUUGGUUGCAUCAUAACUGCUAGAAAACACCCUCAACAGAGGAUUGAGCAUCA | 0.182 ratio |
| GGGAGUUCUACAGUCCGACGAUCCUGAGAAUCUAUCUUGAUGAAAGGAGAGAUGUCUUGGAUGACCUUGUAACAUUGCAUAAUUUCCGAAAUCAGUUCUUGCCAAAUGCACUGAGAGAAUUUUUUCGUCAUAUCCAUGCCCCUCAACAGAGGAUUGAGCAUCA | 0.157 ratio |
| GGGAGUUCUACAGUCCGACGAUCGCGUUCGCGGGGCCGAGGCCAUGGCUUUCUGGGCGGGGGGUUCGCCCAGCGUCGUGGACUAUUUCCCCCGCGAGGACUUCUACCGCUGCGGCUACUGCAAGAACGAGUCGGGCAGCCGCUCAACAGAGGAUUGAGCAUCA | 0.299 ratio |
| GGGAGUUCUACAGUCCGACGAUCUUGAAGCAAGUUCUCGGCCAGAUGGUGAUUGAUGAGGAGCUUCUGGGAGAUGGACACAGCUACCGUCCUAGAGCUAUUCAUUCAUGGCUGACCAGGGCCAUGUACAGCCGGCGCUCGAAGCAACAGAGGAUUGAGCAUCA | 0.157 ratio |
| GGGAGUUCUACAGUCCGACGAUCGAGAUCGAUUGCACCAUGCUCACCCCUGAGCCAGUUUUAAAGACCUCUGGCCAUGCCGACAAAUUUGCUGACUUCAUGGUGAAAGACGUAAAAAAUGGAGAAUGUUUUCGUGCUGACCAUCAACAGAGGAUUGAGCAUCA | 0.0987 ratio |
| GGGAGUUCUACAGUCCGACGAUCCACACAAGUAUGAAGUUUCUUUCAGGUGUAAAUAAUGAAAAAUAAAUGCCUCAUAAAUGACCGUACAAUGUAACUAUCAAAGUUUUAUAAUUCAUUAUGAGUUAACCAUUUUAAUGUUUCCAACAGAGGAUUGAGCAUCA | 0.225 ratio |
| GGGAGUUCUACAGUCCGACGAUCUGCUACCAGACACUGACAGGGAUCAAGUUUGUGGUUCUAGCAGAUCCUAGGCAAGCUGGAACCGAUUCUCUUCUCCGAAAGAUUUAUGAGAUUUACUCAGACUUUGCCCUCAAGAAUCCACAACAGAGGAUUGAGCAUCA | 0.0995 ratio |
